Results pooled from the literature.
A part holds a random share of what one study measured.

Block 1
Target: Histone acetyltransferase KAT6A, winged helix 1, GST fusion (KAT6A, Homo sapiens, UniProt Q92794, residues 1-85)
Technique: protein binding microarray
Form: double-stranded DNA, one strand shown
Sample: in vitro
Concentration: not given
Setting: 8-mer, flanks averaged, mean of 2 arrays, mostly near background
Reference: not given
Direction: higher = stronger binding
Construct (chain): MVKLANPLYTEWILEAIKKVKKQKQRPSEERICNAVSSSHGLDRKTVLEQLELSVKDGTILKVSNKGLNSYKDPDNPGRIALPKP
| Oligonucleotide | E-score |
| --- | --- |
| CACGATCG | 0.0668 |
| CGTCAGAG | -0.0818 |
| GGAGGTGA | -0.0321 |
| ACGATATG | 0.0567 |
| AGAGCAGA | -0.141 |
| ATCGTCGA | -0.0339 |
| AACTGATG | -0.0237 |
| GGTATCAA | -0.072 |
| ATTCATAA | 0.0581 |
| GCGTAGAC | 0.256 |

Block 2
Target: Prothrombin, mature alpha-thrombin (F2, Homo sapiens, UniProt P00734)
Technique: aptamer microarray, sandwich
Form: DNA with 2'F-ANA
Sample: in vitro
Concentration: 200 nM
Setting: whole 15-mer aptamer, many near background
With: Cy3 exosite-II aptamer, 400 nM
Direction: higher = stronger binding
Oligonucleotide: GGTTGGTGTGGTTGG
| Modification | mean fluorescence intensity [a.u.] |
| --- | --- |
| 2'F-ANA at 2 3 4 5 6 7 8 9 10 11 12 13 15 | 54.6 |
| 2'F-ANA at 6 9 12 13 14 | 183 |
| 2'F-ANA at 3 6 7 9 10 11 12 14 15 | 313 |
| 2'F-ANA at 1 4 6 9 10 11 13 15 | 48.3 |
| 2'F-ANA at 2 4 5 6 9 10 12 14 15 | 44.2 |
| 2'F-ANA at 5 7 10 12 14 | 79.4 |
| 2'F-ANA at 2 3 5 11 13 14 15 | 72.3 |
| 2'F-ANA at 3 4 7 8 10 12 13 | 299 |
| 2'F-ANA at 1 2 6 8 10 12 15 | 71.6 |

Block 3
Target: Fragile X messenger ribonucleoprotein 1, C-terminal low-complexity region (Fmr1, Mus musculus, UniProt P35922)
Technique: RNA Bind-n-Seq
Form: RNA
Sample: in vitro
Concentration: 200 nM
Setting: whole 134-nt RNA, ends assumed
With: 150 mM LiCl
Reference: input library
Direction: higher = stronger binding
All molecules: 7-deaza-guanosine replaces G
| Oligonucleotide | log2 enrichment |
| --- | --- |
| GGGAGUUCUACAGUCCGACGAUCAGUCCUGUGCUACACAUCGUAUGUACCGAAUCGGGGUUUUUGGGGUUUGGGGUGGGGAAAGUAUUAUGUUACGCCGUUCGGAUCUGCACUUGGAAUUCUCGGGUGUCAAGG | -1.07 |
| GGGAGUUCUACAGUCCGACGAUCGCAGGAAGUAAAAACAAAUGGAAAUGCUUCGGAUAGUGGCAGGGGUGGGGGUUGCUAAGGAAAGGGUGGGAUGGGAGUAGGUAAAGAGUUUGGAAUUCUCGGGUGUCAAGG | 1.57 |
| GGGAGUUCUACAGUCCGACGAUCACCAUGCAGGUGGGCAUCUUUGGGAAGUGGGGCAAGGGGAAAAUAGGGAGGGGGGUAACACUUUGGGAACAGGUGGUCCCAGGUCGUUUCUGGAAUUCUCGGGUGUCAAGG | 1.1 |
| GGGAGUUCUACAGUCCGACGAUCUGGACUGCCUAUGGAAGAAGAAGUUCAAGAAGGAGCACGAGGAGUUUGAGACCAUGGAGAACGUGAACCGCCUUCUUCUGGAGAACGUCCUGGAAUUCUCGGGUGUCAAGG | -1.58 |
| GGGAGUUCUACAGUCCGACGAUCCUGUGCUACACAUCGUAUGUACCGAAUCGGGGAAAAAAAGGGAAAAAAAGGGAAAAAAAGGAAAGUAUUAUGUUACGCCGUUCGGAUCUGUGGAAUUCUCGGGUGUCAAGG | -0.0881 |

Further values, each from its own experiment
| Substance | target | assay | test system | conditions | how to read | endpoint | value |
| --- | --- | --- | --- | --- | --- | --- | --- |
| PhoQ, residues 284 288 289 292 302 303 SSLVEF | PhoP, residues 12 14 15 18 19 LYFRQ (Escherichia coli, UniProt P23836) | Sort-seq, item: YFP reporter | E. coli | PhoQ-PhoP variant library, with: 10 µM Mg2+ | reference: high Mg2+ state, higher = stronger signaling | fold induction | 17.2 |

Excerpt of the above (block 1):
| Oligonucleotide | E-score |
| --- | --- |
| CGTCAGAG | -0.0818 |
| ATTCATAA | 0.0581 |
